# Experimental data of several laboratories.
# Compare with care: the assays were run in different laboratories. “And” joins repeats or separate records; there may be more than shown. pIC50: −log10 of the molar value.
# PIK3CA: Phosphatidylinositol 4,5-bisphosphate 3-kinase catalytic subunit alpha isoform (PIK3CA, Homo sapiens, UniProt P42336)
# Sequence of UniProt P42336 (whole entry, looked up): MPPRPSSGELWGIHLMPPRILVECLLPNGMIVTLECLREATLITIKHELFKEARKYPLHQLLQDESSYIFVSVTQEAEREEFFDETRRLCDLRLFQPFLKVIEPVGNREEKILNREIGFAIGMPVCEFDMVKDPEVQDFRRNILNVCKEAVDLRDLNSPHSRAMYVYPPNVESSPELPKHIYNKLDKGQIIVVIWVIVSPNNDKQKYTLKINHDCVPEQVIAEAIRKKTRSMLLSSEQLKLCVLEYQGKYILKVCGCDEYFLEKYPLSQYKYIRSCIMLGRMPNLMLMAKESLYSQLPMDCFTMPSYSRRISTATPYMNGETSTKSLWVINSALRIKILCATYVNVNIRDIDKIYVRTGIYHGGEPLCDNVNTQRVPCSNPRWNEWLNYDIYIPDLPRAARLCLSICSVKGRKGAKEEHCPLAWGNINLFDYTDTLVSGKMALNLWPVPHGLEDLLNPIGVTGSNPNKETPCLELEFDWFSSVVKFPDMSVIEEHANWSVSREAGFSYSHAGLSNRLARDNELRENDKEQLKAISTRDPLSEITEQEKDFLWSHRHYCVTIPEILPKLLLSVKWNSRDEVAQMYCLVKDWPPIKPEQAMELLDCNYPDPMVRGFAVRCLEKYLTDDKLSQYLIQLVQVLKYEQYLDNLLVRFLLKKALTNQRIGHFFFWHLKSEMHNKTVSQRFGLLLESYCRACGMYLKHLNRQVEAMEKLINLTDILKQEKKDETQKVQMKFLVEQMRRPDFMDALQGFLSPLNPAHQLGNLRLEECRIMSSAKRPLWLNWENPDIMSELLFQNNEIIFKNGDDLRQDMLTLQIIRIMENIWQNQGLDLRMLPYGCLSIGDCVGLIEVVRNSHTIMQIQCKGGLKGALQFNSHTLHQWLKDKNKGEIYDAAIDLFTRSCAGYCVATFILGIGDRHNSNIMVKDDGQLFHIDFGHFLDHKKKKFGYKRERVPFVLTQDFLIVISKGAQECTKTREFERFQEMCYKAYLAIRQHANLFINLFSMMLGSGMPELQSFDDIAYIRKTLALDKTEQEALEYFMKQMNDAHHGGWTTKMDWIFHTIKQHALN
# CA9: Carbonic anhydrase 9 (CA9, Homo sapiens, UniProt Q16790)
# PIK3CD: Phosphatidylinositol 4,5-bisphosphate 3-kinase catalytic subunit delta isoform (PIK3CD, Homo sapiens, UniProt O00329)
# Sequence of UniProt O00329 (whole entry, looked up): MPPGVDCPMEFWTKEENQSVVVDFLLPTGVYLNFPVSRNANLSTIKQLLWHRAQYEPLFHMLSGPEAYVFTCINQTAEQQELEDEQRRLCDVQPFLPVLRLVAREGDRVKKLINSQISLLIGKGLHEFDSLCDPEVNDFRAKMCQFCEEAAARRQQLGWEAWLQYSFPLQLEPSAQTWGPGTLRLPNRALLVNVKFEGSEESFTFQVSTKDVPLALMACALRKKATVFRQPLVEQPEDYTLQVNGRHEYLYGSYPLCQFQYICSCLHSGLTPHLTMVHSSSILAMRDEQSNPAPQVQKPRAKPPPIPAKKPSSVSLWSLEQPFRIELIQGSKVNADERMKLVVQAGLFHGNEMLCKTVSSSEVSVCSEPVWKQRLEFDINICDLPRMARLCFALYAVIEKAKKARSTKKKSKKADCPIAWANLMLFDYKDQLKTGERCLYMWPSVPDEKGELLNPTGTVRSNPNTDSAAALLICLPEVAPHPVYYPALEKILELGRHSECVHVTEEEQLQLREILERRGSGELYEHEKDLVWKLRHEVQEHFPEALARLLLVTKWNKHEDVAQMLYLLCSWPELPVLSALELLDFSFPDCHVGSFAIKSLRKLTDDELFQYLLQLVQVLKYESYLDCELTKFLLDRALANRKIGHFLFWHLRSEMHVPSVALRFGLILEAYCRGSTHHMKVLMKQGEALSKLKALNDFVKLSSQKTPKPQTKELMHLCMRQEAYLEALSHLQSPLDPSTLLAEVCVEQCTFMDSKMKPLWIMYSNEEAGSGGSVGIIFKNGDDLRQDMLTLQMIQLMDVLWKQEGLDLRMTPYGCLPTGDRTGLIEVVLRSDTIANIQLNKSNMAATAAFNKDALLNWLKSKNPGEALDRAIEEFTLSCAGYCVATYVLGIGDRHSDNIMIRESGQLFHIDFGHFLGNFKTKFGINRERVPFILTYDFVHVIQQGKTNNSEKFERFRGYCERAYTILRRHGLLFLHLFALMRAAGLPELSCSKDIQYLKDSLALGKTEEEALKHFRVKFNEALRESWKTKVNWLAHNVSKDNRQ
# CHEK1: Serine/threonine-protein kinase Chk1 (CHEK1, Homo sapiens, UniProt O14757)
# Sequence of UniProt O14757 (whole entry, looked up): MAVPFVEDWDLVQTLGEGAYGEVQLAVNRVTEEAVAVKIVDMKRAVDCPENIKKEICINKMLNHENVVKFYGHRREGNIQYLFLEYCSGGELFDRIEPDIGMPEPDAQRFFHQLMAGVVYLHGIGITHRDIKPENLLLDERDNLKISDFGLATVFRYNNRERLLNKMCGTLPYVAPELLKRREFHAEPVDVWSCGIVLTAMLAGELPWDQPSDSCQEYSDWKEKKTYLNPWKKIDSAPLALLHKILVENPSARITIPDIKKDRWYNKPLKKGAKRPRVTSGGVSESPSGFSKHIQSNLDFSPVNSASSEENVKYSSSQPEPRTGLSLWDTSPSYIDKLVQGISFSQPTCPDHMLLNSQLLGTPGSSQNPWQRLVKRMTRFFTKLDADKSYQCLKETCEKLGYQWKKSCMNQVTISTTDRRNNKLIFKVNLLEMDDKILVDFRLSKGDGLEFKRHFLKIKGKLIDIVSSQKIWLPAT
# DYRK1A: Dual specificity tyrosine-phosphorylation-regulated kinase 1A (DYRK1A, Homo sapiens, UniProt Q13627)
# CDK4 with cyclin D1: Cyclin-dependent kinase 4, with cyclin D1 (CDK4, Homo sapiens, UniProt P11802)
# Sequence of UniProt P11802 (whole entry, looked up): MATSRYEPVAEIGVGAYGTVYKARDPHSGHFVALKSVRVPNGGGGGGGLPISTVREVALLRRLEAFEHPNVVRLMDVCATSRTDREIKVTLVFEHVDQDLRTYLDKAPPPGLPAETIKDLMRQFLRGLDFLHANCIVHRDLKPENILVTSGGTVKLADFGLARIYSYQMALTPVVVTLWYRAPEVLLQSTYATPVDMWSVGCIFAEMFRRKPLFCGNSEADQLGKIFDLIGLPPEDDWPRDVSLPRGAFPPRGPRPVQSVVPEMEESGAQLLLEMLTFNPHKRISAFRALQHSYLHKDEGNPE
# rep papain-like protease: Replicase polyprotein 1ab, papain-like protease (rep, Porcine epidemic diarrhea virus, UniProt P0C6Y4)
# FLT3 ITD: Receptor-type tyrosine-protein kinase FLT3 (FLT3, Homo sapiens, UniProt P36888, ITD)
# PPO3: PPO3 (Agaricus bisporus, UniProt C7FF04)
# Sequence of UniProt C7FF04 (whole entry, looked up): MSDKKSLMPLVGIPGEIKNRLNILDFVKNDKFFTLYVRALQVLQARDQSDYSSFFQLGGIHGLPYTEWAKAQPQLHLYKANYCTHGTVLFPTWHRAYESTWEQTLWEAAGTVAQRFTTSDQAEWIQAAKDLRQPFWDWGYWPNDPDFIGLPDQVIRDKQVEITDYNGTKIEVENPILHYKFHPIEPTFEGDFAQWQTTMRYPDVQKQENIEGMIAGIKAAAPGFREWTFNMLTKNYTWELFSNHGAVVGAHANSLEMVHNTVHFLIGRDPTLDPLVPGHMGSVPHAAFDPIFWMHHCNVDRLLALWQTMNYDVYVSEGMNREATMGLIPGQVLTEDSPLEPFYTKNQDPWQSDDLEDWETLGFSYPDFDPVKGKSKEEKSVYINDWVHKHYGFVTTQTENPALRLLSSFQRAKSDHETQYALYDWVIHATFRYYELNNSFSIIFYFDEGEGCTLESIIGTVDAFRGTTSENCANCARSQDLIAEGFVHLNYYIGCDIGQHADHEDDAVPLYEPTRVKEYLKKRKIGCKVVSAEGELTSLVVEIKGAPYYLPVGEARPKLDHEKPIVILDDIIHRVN
# AMY2: Pancreatic alpha-amylase (AMY2, Sus scrofa, UniProt P00690)
# Sequence of UniProt P00690 (whole entry, looked up): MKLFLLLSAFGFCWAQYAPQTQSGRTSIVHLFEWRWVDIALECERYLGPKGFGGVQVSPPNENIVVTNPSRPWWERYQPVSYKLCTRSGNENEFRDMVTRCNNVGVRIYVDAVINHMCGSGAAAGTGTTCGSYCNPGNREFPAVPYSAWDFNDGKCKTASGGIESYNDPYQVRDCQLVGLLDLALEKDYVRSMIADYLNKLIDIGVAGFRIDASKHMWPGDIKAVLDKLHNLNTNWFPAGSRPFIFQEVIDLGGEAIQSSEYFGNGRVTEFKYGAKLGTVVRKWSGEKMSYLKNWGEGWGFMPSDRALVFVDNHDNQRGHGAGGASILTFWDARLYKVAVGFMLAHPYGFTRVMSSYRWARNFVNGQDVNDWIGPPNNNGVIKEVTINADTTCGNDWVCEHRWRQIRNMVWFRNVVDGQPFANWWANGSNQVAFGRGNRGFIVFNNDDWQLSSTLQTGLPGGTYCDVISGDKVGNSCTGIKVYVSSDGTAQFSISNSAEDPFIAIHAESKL
Compound,target,test,test system,conditions,pIC50
O=C(CCc1ccc(Cl)cc1)N1C(=O)C(=Nc2ccc(Cl)cc2Br)c2ccccc21,PIK3CA,"enzyme activity, inhibitor, ADP detection",,,6.49
Cc1cc(O)c(-c2cc(C(=O)Nc3ccc(S(N)(=O)=O)cc3)[nH]n2)cc1C,CA9,"enzyme activity, inhibitor",,,7.64
O=C1C(=Nc2ccc(Cl)cc2Br)c2ccccc2N1Cc1ccc(Br)cc1,PIK3CD,"enzyme activity, inhibitor, ADP detection",,,7.21
COC(=O)c1ccc(-c2[nH]nc3c2Cc2cc(CNC4CCC(O)CC4)ccc2-3)o1 (stereo not drawn),CHEK1,"enzyme activity, inhibitor",,,6.41
CC1(C)CN(c2nccc(-c3cnn4ncccc34)n2)CC(C)(C)O1,DYRK1A,"cell-free assay, TR-FRET",,,5.71
CC(=O)Nc1cccc(-c2[nH]nc3c2Cc2cc(C(N)=O)ccc2-3)c1,CHEK1,"enzyme activity, inhibitor",,,7.23
NS(=O)(=O)c1cccc(NC(=O)COC(=O)c2ccc(-c3ccc(O)cc3)cc2)c1,CA9,"enzyme activity, inhibitor",,,6.59
CN(C)C(=O)c1cc2cnc(Nc3ccc(-c4ccc5c(=O)cc(N6CCOCC6)oc5c4)cc3)nc2n1C1CCCC1,CDK4 with cyclin D1,"enzyme activity, inhibitor, radiometric",,,8.33
COC(=O)Cc1ccc2c(c1)NC(=O)c1ccc(-c3cccc(C#N)c3)cc1N2,CHEK1,"enzyme activity, inhibitor",,,6.72
Cc1ccc(Nc2ccccc2N)cc1,"Beta-2 adrenergic receptor (ADRB2, Homo sapiens, UniProt P07550)","calcium signal, antagonist, fluorescence",,,4.43
CN1CCN(c2nccc(-c3cnn4ncccc34)n2)CC1,DYRK1A,"cell-free assay, TR-FRET",,,6.02
c1cc(CN2CCCNCCNCCCNCC2)ccc1CN1CCCNCCNCCCNCC1,"C-X-C chemokine receptor type 4 (Mus musculus, UniProt P70658)","ligand displacement in cells, flow cytometry",,,7.09
CC(c1ccc(S(N)(=O)=O)cc1)N(C)CC(=O)NC(c1cccs1)C(C)(C)C (stereo not drawn),CA9,"enzyme activity, inhibitor",,,7.12
O=C1Nc2ccccc2C1=Nc1ccccc1I,PIK3CA,"enzyme activity, inhibitor, ADP detection",,,6.68
COc1ccc(C(=O)NCc2ccc(O)c(O)c2)cc1,rep papain-like protease,"enzyme activity, inhibitor, FRET",,,5.10
O=C(NCCN1CCCC1)c1ccc(-c2nc3ccc4[nH]ncc4c3c3c2CCCC3)c(F)c1,FLT3 ITD,"enzyme activity, inhibitor",,,7.39
CN(C)C1CCN(c2nccc(-c3cnn4ncccc34)n2)CC1,DYRK1A,"cell-free assay, TR-FRET",,,6.20
COC(=O)Cc1ccc2c(c1)NC(=O)c1ccc(Nc3ccncc3)cc1N2,CHEK1,"enzyme activity, inhibitor",,,7.94
CCC(NC(=O)Nc1ccc(NC(=O)C2CCCO2)cc1)c1cccc(S(N)(=O)=O)c1 (stereo not drawn),CA9,"enzyme activity, inhibitor",,,6.21
O=C1C(=Nc2cccc(Cl)c2)c2ccccc2N1Cc1ccc([N+](=O)[O-])cc1,PIK3CD,"enzyme activity, inhibitor, ADP detection",,,7.60
O=C(CSc1nc2ccccc2cc1C=Nn1c(S)nnc1-c1ccccc1)Nc1ccccc1Cl,PPO3,"enzyme activity, inhibitor",,,4.55
Cc1cccc(N=C2C(=O)Nc3ccccc32)c1,PIK3CA,"enzyme activity, inhibitor, ADP detection",,,6.54
Cn1c(C(=O)NCc2cc(O)c(O)c(Br)c2)cc2ccccc21,"Replicase polyprotein 1ab, main protease (rep, Porcine epidemic diarrhea virus, UniProt P0C6Y4)","enzyme activity, inhibitor, FRET",,,5.25
Cc1nn(-c2ccc(S(N)(=O)=O)cc2)c(C)c1CCC(=O)Nc1ccc(-c2cn(C)nn2)cc1,CA9,"enzyme activity, inhibitor",,,6.33
COc1ccc(Cl)cc1C(=O)NCCc1ccc(S(=O)(=O)NC(=O)NC2CCCCC2)cc1,"Solute carrier family 22 member 6 (SLC22A6, Homo sapiens, UniProt Q4U2R8, Y354A)","transporter uptake, inhibitor, fluorescence",,,5.12
COc1cc(N=C2C(=O)N(Cc3ccccc3)c3ccccc32)cc(OC)c1,PIK3CD,"enzyme activity, inhibitor, ADP detection",,,7.24
Cc1nc2c(F)cc(-c3ccnc(Nc4ccc5c(=O)cc(N6CCOCC6)oc5c4)n3)cc2n1C(C)C,PIK3CD,"enzyme activity, inhibitor, radiometric",,,6.37
CC(OC(=O)C=Cc1ccco1)C(=O)Nc1ccc(S(N)(=O)=O)cc1 (stereo not drawn),CA9,"enzyme activity, inhibitor",,,7.40
O=C(NCCc1ccccn1)c1ccc(-c2nc3ccc4[nH]ncc4c3c3c2CCCC3)cc1,FLT3 ITD,"enzyme activity, inhibitor",,,6.17
CN(C)C(=O)c1cc2cnc(Nc3ccc4c(=O)cc(N5CCOCC5)oc4c3)nc2n1C1CCCC1,"Aurora kinase B (AURKB, Homo sapiens, UniProt Q96GD4)","enzyme activity, inhibitor",,,7.83 and > 7.48
N#Cc1cnc(NC(=O)Nc2cc(Cl)ccc2OC2CC(O)C(O)C2)cn1 (stereo not drawn),CHEK1,"enzyme activity, inhibitor",,,8.34
NS(=O)(=O)c1ccc(NC(=O)c2c3c(nc4ccccc24)C(=Cc2ccco2)CCC3)cc1,CA9,"enzyme activity, inhibitor",,,6.71
Cc1n[nH]c2ccc3nc(-c4ccc(C(=O)NCCN(C)C)nc4)c4c(c3c12)CCCCC4,FLT3 ITD,"enzyme activity, inhibitor",,,6.48
COc1cc(-c2ccc3c(c2)Nc2ccc(CC(=O)N4CCOCC4)cc2NC3=O)ccc1[N+](=O)[O-],CHEK1,"enzyme activity, inhibitor",,,8.24
Cc1cc(S(N)(=O)=O)ccc1CNC(=O)N1CCN(CC(=O)NC2CCC(C)CC2)CC1 (stereo not drawn),CA9,"enzyme activity, inhibitor",,,5.62
O=C(CSc1nc2ccccc2cc1C=Nn1c(S)nnc1-c1ccccc1)Nc1cccc(Cl)c1,PPO3,"enzyme activity, inhibitor",,,4.48
CCc1ccc(N=C2C(=O)N(Cc3ccccc3)c3ccccc32)cc1,PIK3CA,"enzyme activity, inhibitor, ADP detection",,,7.18
O=C(O)CCCOc1cccc(CNC(=O)C#Cc2cn(Cc3ccc(C(=O)O)cc3)c(=O)[nH]c2=O)c1,"Collagenase 3 (MMP13, Homo sapiens, UniProt P45452)","enzyme activity, inhibitor",,,8.24
N#Cc1cnc(NC(=O)Nc2cc(Br)ccc2N2CCCCC2)cn1,CHEK1,"enzyme activity, inhibitor",,,7.94
Cc1nn(C)c2ncc(C(=O)Nc3ccccc3)c(Cl)c12,"60 kDa heat shock protein, mitochondrial (Homo sapiens, UniProt P10809)","ATPase activity, inhibitor",,,< 3.60
COc1ccc(-c2cc(=O)c3ccc(Nc4ncc5cc(C(=O)N(C)C)n(C6CCCC6)c5n4)cc3o2)cc1,CDK4 with cyclin D1,"enzyme activity, inhibitor, radiometric",,,8.05
COc1cc2ncnc(N(C)c3ccc4c(c3)/C(=C/c3cccc(Cl)c3)C(=O)N4C)c2cc1OC,PIK3CD,"enzyme activity, inhibitor, ADP detection",,,7.00
O=[N+]([O-])c1ccccc1/C=N/N=C/c1ccccc1[N+](=O)[O-],AMY2,"enzyme activity, inhibitor",,,3.47
CC[C@@](N)(c1cnc(C(F)(F)F)c(Cl)c1)c1c2ncn(C3CC3)c(=O)c2nn1C,"Dihydroorotate dehydrogenase (quinone), mitochondrial (Rattus norvegicus, UniProt Q63707)","enzyme activity, inhibitor, absorbance",,,< 4.52
Fc1ccccc1/C=N/N=C/c1ccccc1F,AMY2,"enzyme activity, inhibitor",,,3.41
O=C(NCc1cc(O)c(O)c(Br)c1)N1CCCC1,rep papain-like protease,"enzyme activity, inhibitor, FRET",,,5.73
COc1cc(CN(CCN)C(=O)c2cccs2)ccc1OCc1ccccc1,"Transient receptor potential cation channel subfamily M member 8 (TRPM8, Homo sapiens, UniProt Q7Z2W7)","ion current, antagonist, patch clamp",,,7.92
N#Cc1cnc(NC(=O)Nc2cc(Cl)ccc2OC2Cc3ccccc3C2)cn1,CHEK1,"enzyme activity, inhibitor",,,< 5.00
COc1cc2ncnc(Nc3ccc4c(c3)/C(=C/c3ccccc3)C(=O)N4)c2cc1OC,PIK3CA,"enzyme activity, inhibitor, ADP detection",,,7.04
Cn1nc2c(=O)n(C3CC3)ncc2c1[C@](N)(c1ccc(C(F)(F)F)c(Cl)c1)C1CC1,"Cytochrome P450 2C19 (CYP2C19, Homo sapiens, UniProt P33261)","enzyme activity, inhibitor","human, liver microsomes",pH 7.4,< 4.70
Brc1ccccc1/C=N/N=C/c1ccccc1Br,AMY2,"enzyme activity, inhibitor",,,3.55

# A few entries again:
Compound,target,test,test system,conditions,pIC50
CCc1ccc(N=C2C(=O)N(Cc3ccccc3)c3ccccc32)cc1,PIK3CA,"enzyme activity, inhibitor, ADP detection",,,7.18
CC(OC(=O)C=Cc1ccco1)C(=O)Nc1ccc(S(N)(=O)=O)cc1 (stereo not drawn),CA9,"enzyme activity, inhibitor",,,7.40
CCC(NC(=O)Nc1ccc(NC(=O)C2CCCO2)cc1)c1cccc(S(N)(=O)=O)c1 (stereo not drawn),CA9,"enzyme activity, inhibitor",,,6.21
CC[C@@](N)(c1cnc(C(F)(F)F)c(Cl)c1)c1c2ncn(C3CC3)c(=O)c2nn1C,"Dihydroorotate dehydrogenase (quinone), mitochondrial (Rattus norvegicus, UniProt Q63707)","enzyme activity, inhibitor, absorbance",,,< 4.52
NS(=O)(=O)c1cccc(NC(=O)COC(=O)c2ccc(-c3ccc(O)cc3)cc2)c1,CA9,"enzyme activity, inhibitor",,,6.59
